{"data": "Measurements of several laboratories", "note": "Each numbered part is a random draw from the data of one study; scales do not carry over between parts. Positions count from the first letter of the parent shown."}
{"data": "Block 1", "target": "CCNB3, cyclin fold, Cln2 fusion (human)", "method": "yeast growth competition, sequencing", "sample": "yeast", "setting": "weak parent motif", "relative to": "not given", "direction": "higher = stronger binding", "starting sequence": "RB1 docking peptide (human); PKPLKKLRFDIEG; partner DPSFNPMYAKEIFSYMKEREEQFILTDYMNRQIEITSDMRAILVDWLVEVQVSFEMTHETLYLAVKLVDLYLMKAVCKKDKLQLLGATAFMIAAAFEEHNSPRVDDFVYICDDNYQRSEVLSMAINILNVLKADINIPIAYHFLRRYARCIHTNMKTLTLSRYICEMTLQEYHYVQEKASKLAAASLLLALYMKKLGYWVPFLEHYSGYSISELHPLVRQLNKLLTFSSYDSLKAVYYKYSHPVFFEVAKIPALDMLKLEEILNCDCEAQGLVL"}
{"Change": "P1E", "normalised enrichment score": 0.593}
{"Change": "I11F", "normalised enrichment score": -0.228}
{"Change": "K5V", "normalised enrichment score": 0.281}
{"Change": "F9H", "normalised enrichment score": -0.198}
{"Change": "L4K", "normalised enrichment score": -0.285}
{"Change": "K5M", "normalised enrichment score": 0.237}
{"Change": "G13D", "normalised enrichment score": 0.134}
{"Change": "G13I", "normalised enrichment score": 0.288}
{"data": "Block 2", "target": "ABI1, truncated, D143A, DHFR fusion (Arabidopsis thaliana)", "method": "DHFR PCA, deep sequencing", "sample": "yeast", "setting": "methotrexate growth selection, single substitutions", "together with": "(+)-ABA 0.032 µM", "relative to": "wild-type fitted maximum", "direction": "higher = stronger binding", "starting sequence": "PYL1, truncated, DHFR fusion (Arabidopsis thaliana); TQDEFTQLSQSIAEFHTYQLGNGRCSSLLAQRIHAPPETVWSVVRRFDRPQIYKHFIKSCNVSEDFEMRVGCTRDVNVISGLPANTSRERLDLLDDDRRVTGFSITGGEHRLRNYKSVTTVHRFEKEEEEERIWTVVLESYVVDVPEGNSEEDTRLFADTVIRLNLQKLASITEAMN; partner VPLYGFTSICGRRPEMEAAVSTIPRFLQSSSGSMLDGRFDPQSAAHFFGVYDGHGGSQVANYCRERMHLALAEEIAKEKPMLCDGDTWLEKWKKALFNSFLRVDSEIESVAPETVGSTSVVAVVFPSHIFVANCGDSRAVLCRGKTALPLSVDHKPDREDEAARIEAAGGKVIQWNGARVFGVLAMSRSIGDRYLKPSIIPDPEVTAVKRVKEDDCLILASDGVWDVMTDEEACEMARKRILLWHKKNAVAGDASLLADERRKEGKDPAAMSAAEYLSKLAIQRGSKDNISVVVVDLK"}
{"Change": "D144F", "relative binding score": "-19.3%"}
{"Change": "I79W", "relative binding score": "19.5%"}
{"Change": "Y115W", "relative binding score": "-1.29%"}
{"Change": "K58V", "relative binding score": "-3.99%"}
{"Change": "D97C", "relative binding score": "9.21%"}
{"Change": "F103A", "relative binding score": "-1.08%"}
{"Change": "I33M", "relative binding score": "3.4%"}
{"Change": "V43K", "relative binding score": "-1.09%"}
{"Change": "N177W", "relative binding score": "14.8%"}
{"Change": "Q2I", "relative binding score": "69.5%"}
{"Change": "L8G", "relative binding score": "0.0261%"}
{"Change": "F157Q", "relative binding score": "0.521%"}
{"data": "Block 3", "target": "Histone acetyltransferase KAT6A, both winged helices, GST fusion (KAT6A, Homo sapiens, UniProt Q92794, residues 1-181)", "method": "protein binding microarray", "molecule type": "double-stranded DNA, one strand shown", "sample": "in vitro", "tested at": "not given", "setting": "8-mer, flanks averaged, mean of 2 arrays, mostly near background", "relative to": "not given", "direction": "higher = stronger binding", "Residues (chain)": "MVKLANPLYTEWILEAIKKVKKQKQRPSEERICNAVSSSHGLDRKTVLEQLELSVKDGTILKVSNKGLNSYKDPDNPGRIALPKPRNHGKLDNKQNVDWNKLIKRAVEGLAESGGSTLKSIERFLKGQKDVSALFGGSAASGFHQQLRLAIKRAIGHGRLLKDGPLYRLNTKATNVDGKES"}
{"Oligonucleotide": "CGCGTGAC", "E-score": 0.279}
{"Oligonucleotide": "AGAACCTG", "E-score": -0.208}
{"Oligonucleotide": "TTAAAAAA", "E-score": -0.122}
{"Oligonucleotide": "AAGCGGCA", "E-score": 0.283}
{"Oligonucleotide": "CTTAGAAA", "E-score": 0.0188}
{"Oligonucleotide": "CGAGGGTC", "E-score": 0.00504}
{"Oligonucleotide": "AGGGATGG", "E-score": -0.15}
{"Oligonucleotide": "TCAACGCA", "E-score": 0.189}
{"Oligonucleotide": "GGATATCC", "E-score": 0.114}
{"data": "Single results of other studies"}
{"Molecule": "PhoQ, residues 284 288 289 292 302 303 SACGEM", "target": "PhoP, residues 12 14 15 18 19 LYFRQ (Escherichia coli, UniProt P23836)", "test": "Sort-seq, item: YFP reporter", "test system": "E. coli", "setting": "PhoQ-PhoP variant library, together with: 10 µM Mg2+", "how to read": "relative to: high Mg2+ state, higher = stronger signaling", "quantity": "fold induction", "value": 17.3}
{"note": "Excerpt of the above (block 2):"}
{"Change": "D144F", "relative binding score": "-19.3%"}
{"Change": "I79W", "relative binding score": "19.5%"}
{"Change": "Y115W", "relative binding score": "-1.29%"}
{"Change": "K58V", "relative binding score": "-3.99%"}
{"Change": "D97C", "relative binding score": "9.21%"}
